Published values of several laboratories.
± gives the spread as reported.
KDR: Vascular endothelial growth factor receptor 2 (KDR, Homo sapiens, UniProt P35968)
PDGFRB: Platelet-derived growth factor receptor beta (PDGFRB, Homo sapiens, UniProt P09619)
CTSL: Procathepsin L (CTSL, Homo sapiens, UniProt P07711)

COc1cc2nccc(Oc3ccc4c(c3)CN(CC(F)F)C(=O)N4)c2cc1C(N)=O  IC50 (KDR): 0.376 µM
Cc1cccc(Cn2c(OC3CCN(C(=O)C4CC4)CC3)nc3c2c(=O)n(C)c(=O)n3C)c1F  IC50 (Aldehyde dehydrogenase 1A1 (ALDH1A1, Homo sapiens, UniProt P00352)): 0.131 ± 0.06 µM
C=CC1C(OC2OC(CO)C(O)C(O)C2O)OC=C2C(=O)OC(OC)CC21 (centres unmarked)  IC50 (Alpha-glucosidase MAL12 (MAL12, Saccharomyces cerevisiae S288c, UniProt P53341); enzyme activity, inhibitor, absorbance): > 100 µM
Cn1c(-c2ccccc2)c(-c2nc3ccccc3[nH]c2=O)c2ccccc21  IC50 (Tyrosine-protein kinase JAK3 (JAK3, Homo sapiens, UniProt P52333); enzyme activity, inhibitor, ADP detection): 0.02 to 0.028 µM
COc1cc2ncnc(Oc3ccc(Nc4nccc5[nH]cc(-c6ccc(F)cc6)c(=O)c45)cc3F)c2cc1OC  IC50 (Hepatocyte growth factor receptor (MET, Homo sapiens, UniProt P08581); HGF-induced autophosphorylation, inhibitor, ELISA; MKN-45): 0.0473 µM
CCCCCCCCCCCCCC(=S)NCCCC[C@H](NC(=O)[C@H](CCCNC(=N)N)NC(=O)[C@H](C)N)C(=O)N[C@@H](CO)C(=O)N[C@H](C(=O)O)[C@@H](C)O  IC50 (NAD-dependent protein deacylase sirtuin-6 (SIRT6, Homo sapiens, UniProt Q8N6T7); enzyme activity, inhibitor): 8.2 µM
CCCc1c(OC)c(=O)c2c(O)c(Br)c(OC)c3c4c(OC)c(Br)c(O)c5c(=O)c(OC)c(CCC)c(c1c23)c54  IC50 (protein kinase C; enzyme activity, inhibitor; whole enzyme): 2.5 µM
CC1CC(=O)N(CCCCCN)N=C1c1ccc(NC(=O)N2Cc3ccncc3C2)cc1 (centres unmarked)  IC50 (Nicotinamide phosphoribosyltransferase (NAMPT, Homo sapiens, UniProt P43490); enzyme activity, inhibitor): 0.0008 µM
COc1cc2nccc(Oc3ccc(NC(=S)N[C@H](C)CO)c(Cl)c3)c2cc1C(N)=O  IC50 (PDGFRB): 0.0801 µM
C=C(CC(O)C(=O)O)C(=O)O (racemic)  IC50 (Methylcytosine dioxygenase TET1 (TET1, Homo sapiens, UniProt Q8NFU7); enzyme activity, 5hmC ELISA; recombinant protein): 1.5 µM
Nc1nc2c(c(=O)[nH]1)[n+](Cc1ccc(F)c(F)c1)cn2[C@@H]1O[C@H](COP(=O)(O)O)[C@@H](O)[C@H]1O  IC50 (7-methylguanosine phosphate-specific 5'-nucleotidase (NT5C3B, Homo sapiens, UniProt Q969T7); enzyme activity, inhibitor, absorbance; pH 7.5): 10.8 µM
O=c1[nH]c(=S)[nH]c2c1C(c1cc(/N=N/c3ccc(Br)cc3)ccc1O)c1c([nH]c(=S)[nH]c1=O)N2  IC50 (Prostaglandin G/H synthase 2 (PTGS2, Ovis aries, UniProt P79208); enzyme activity, inhibitor, ELISA): 1.02 µM
CC(C)CCN(Cc1ccncc1)c1nc(C#N)nc(N2CCOCC2)n1  IC50 (CTSL; enzyme activity, inhibitor, fluorescence): 0.041 µM
Cn1c(=O)oc2cc(S(=O)(=O)N3CCN(C(=O)c4ccc5[nH]ccc5c4)CC3)ccc21  IC50 (Nucleotide triphosphate diphosphatase NUDT15 (NUDT15, Homo sapiens, UniProt Q9NV35); enzyme activity, inhibitor, absorbance): > 100 µM
Cc1ccccc1/C=C/c1nc2ccccc2c(=O)[nH]1  IC50 (Nucleoside transporter 1 (Plasmodium vivax, UniProt A5K8B0); [3H]adenosine uptake; target-expressing yeast): 0.0075 ± 0.004 µM
O=C(CN1CCOc2ccccc2C1)c1ccc2[nH]c(=O)[nH]c2c1  IC50 (DNA dC->dU-editing enzyme APOBEC-3A (Homo sapiens, UniProt P31941); deaminase activity, inhibitor, alkaline cleavage; 293T lysate, untagged): 170 µM
CCCCCCCCCOc1c(CCCC(=O)O)cc(-c2ccc(C(=O)O)cc2)cc1CCCC(=O)O  IC50 (Tyrosine-protein phosphatase non-receptor type 11 (PTPN11, Homo sapiens, UniProt Q06124); enzyme activity, inhibitor, fluorescence): ~5 µM
NC1CCC(Nc2nccc(-c3cccnc3Oc3ccc(NS(=O)(=O)c4ccccc4Cl)cc3F)n2)CC1 (centres unmarked)  IC50 (Serine/threonine-protein kinase/endoribonuclease IRE1, RNase domain (ERN1, Homo sapiens, UniProt O75460); RNase activity, inhibitor; together with: XBP1 mini-substrate): 0.24 ± 0.05 µM
COc1cc2nccc(Oc3ccc(NC(=S)N4CC(F)(F)C4)c(Cl)c3)c2cc1C(N)=O  IC50 (PDGFRB): 0.184 µM
COc1ccc2c(c1)/C(=N\Nc1nnc3n1N=C(c1ccccc1)CS3)C(=O)N2  IC50 (PDGFR; kinase activity, inhibitor): 0.371 µM
CC(C)C[C@H](NC(=O)C1CCCCCC1)C(=O)n1nc(Nc2ccccc2/C=C/C(N)=O)nc1N  IC50 (DNA topoisomerase 1 (TOP1, Homo sapiens, UniProt P11387); enzyme activity, inhibitor): 31.1 µM
O=C1C2=C(Nc3ccccc3SC2c2ccc(O)c(O)c2)c2ccccc21 (racemic)  IC50 (Cytochrome b (MT-CYB, Homo sapiens, UniProt P00156); enzyme activity, inhibitor): > 5 µM
O=C(N[C@@H](Cc1coc2ccccc12)B(O)O)[C@@H]1C[C@H]2CC[C@@H]1O2  IC50 (PSMB6/PSMB7 (Homo sapiens, UniProt P28072+Q99436); β1 enzyme activity, inhibitor; human constitutive proteasome; 2 h preincubation, together with: Ac-nLPnLD-AMC): > 30 µM
COc1cc2nccc(Oc3ccc(NC(=S)Nc4cccc(C(F)(F)F)c4)c(Cl)c3)c2cc1C(N)=O  IC50 (KDR): 0.118 µM
O=C1CC(c2ccc(Br)cc2)N1S(=O)(=O)c1cccc(Cl)c1 (centres unmarked)  IC50 (Rhomboid protease AarA (Providencia stuartii, UniProt P46116); enzyme activity, inhibitor, fluorescence): < 20 µM
Cn1c(=O)n(CCCO)c(=O)c2c1nc(Oc1cccc(C3(C(F)(F)F)N=N3)c1)n2Cc1ccc(Cl)cc1  IC50 (Short transient receptor potential channel 4 (TRPC4, Homo sapiens, UniProt Q9UBN4); calcium signal, inhibitor, fluorescence): 0.04 µM
COc1ccc([C@@H]2CC(=O)c3c(O)cc(O[C@@H]4O[C@H](CO[C@@H]5O[C@@H](C)[C@H](O)[C@@H](O)[C@H]5O)[C@@H](O)[C@H](O)[C@H]4O)cc3O2)cc1O  IC50 (Solute carrier organic anion transporter family member 2B1 (SLCO2B1, Homo sapiens, UniProt O94956); transporter uptake, inhibitor, flow cytometry; HEK293; 10 min): 8.3 µM
O=C(O)CCC(=O)NNC(=O)c1ccc2ccccc2n1  IC50 (Egl nine homolog 1 (EGLN1, Homo sapiens, UniProt Q9GZT9); inhibitor, AlphaScreen; bimodal curve, rough estimate, together with: 2 µM 2-oxoglutarate): > 300 µM
NC(c1ccccc1)(c1ccccc1)c1ccccc1  IC50 (Intermediate conductance calcium-activated potassium channel protein 4 (KCNN4, Homo sapiens, UniProt O15554); ion current, inhibitor, patch clamp): 5.3 µM
COc1cnc(COc2ccc(F)c(F)c2)cc1-c1cc2c([nH]1)CCNC2=O  IC50 (Casein kinase I isoform gamma-3 (CSNK1G3, Homo sapiens, UniProt Q9Y6M4); target engagement in cells, BRET): 0.01 µM
COc1cc2nccc(Oc3ccc(NC(=S)NC4CC4)c(Cl)c3)c2cc1-c1ncco1  IC50 (PDGFRB): 0.136 µM
CCOC(=O)N1CCC(Oc2nc3c(c(=O)n(C)c(=O)n3C)n2CCC(C)C)CC1  IC50 (Peroxisomal multifunctional enzyme type 2 (HSD17B4, Homo sapiens, UniProt P51659)): > 57 µM
CN(C(=O)c1ccn2ncc(-c3ccc(C(N)=O)cc3)c2c1)c1ccc(C#N)cn1  IC50 (Equilibrative nucleoside transporter 1 (SLC29A1, Homo sapiens, UniProt Q99808); inhibitor, radioligand binding): > 30 µM
Cn1cc2c(n1)CN(C(=O)Nc1nc(-c3ccc(F)cc3)ccc1N)C2  IC50 (Histone deacetylase 5 (HDAC5, Homo sapiens, UniProt Q9UQL6); deacetylase activity, inhibitor, recombinant enzyme): > 30 µM
N#Cc1nc(N2CCOCC2)nc(N(CCC2CCCCC2)Cc2ccc(F)cc2)n1  IC50 (CTSL; enzyme activity, inhibitor, fluorescence): 87.5 µM

Some of these lines once more:
Cn1c(=O)n(CCCO)c(=O)c2c1nc(Oc1cccc(C3(C(F)(F)F)N=N3)c1)n2Cc1ccc(Cl)cc1  IC50 (Short transient receptor potential channel 4 (TRPC4, Homo sapiens, UniProt Q9UBN4); calcium signal, inhibitor, fluorescence): 0.04 µM
CC1CC(=O)N(CCCCCN)N=C1c1ccc(NC(=O)N2Cc3ccncc3C2)cc1 (centres unmarked)  IC50 (Nicotinamide phosphoribosyltransferase (NAMPT, Homo sapiens, UniProt P43490); enzyme activity, inhibitor): 0.0008 µM
NC(c1ccccc1)(c1ccccc1)c1ccccc1  IC50 (Intermediate conductance calcium-activated potassium channel protein 4 (KCNN4, Homo sapiens, UniProt O15554); ion current, inhibitor, patch clamp): 5.3 µM
CC(C)CCN(Cc1ccncc1)c1nc(C#N)nc(N2CCOCC2)n1  IC50 (CTSL; enzyme activity, inhibitor, fluorescence): 0.041 µM
